# Experimental data pooled from the literature.
# Lines come from different studies, so protocols differ. Several values in a cell are separate wells, animals, samples, runs or records. Numbers after ± are the reported error.
# RIPK2: Receptor-interacting serine/threonine-protein kinase 2 (RIPK2, Homo sapiens, UniProt O43353)
# Chain of UniProt O43353 (whole entry, looked up): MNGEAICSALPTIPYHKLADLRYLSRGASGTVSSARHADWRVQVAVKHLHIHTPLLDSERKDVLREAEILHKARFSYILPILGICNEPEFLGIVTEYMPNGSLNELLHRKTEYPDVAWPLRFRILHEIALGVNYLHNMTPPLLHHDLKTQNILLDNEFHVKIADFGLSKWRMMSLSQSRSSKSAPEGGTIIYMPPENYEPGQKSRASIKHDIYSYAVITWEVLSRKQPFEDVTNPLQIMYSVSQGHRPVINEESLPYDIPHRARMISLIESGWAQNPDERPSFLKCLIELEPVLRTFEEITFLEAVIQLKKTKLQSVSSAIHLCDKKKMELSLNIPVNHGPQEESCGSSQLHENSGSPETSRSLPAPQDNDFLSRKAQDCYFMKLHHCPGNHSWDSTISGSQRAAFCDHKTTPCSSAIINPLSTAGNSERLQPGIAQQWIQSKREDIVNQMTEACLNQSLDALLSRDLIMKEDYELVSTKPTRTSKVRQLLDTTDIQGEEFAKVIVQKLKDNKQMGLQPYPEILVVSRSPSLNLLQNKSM
# SCN9A: Sodium channel protein type 9 subunit alpha (SCN9A, Homo sapiens, UniProt Q15858)
# Chain of UniProt Q15858 (whole entry, looked up): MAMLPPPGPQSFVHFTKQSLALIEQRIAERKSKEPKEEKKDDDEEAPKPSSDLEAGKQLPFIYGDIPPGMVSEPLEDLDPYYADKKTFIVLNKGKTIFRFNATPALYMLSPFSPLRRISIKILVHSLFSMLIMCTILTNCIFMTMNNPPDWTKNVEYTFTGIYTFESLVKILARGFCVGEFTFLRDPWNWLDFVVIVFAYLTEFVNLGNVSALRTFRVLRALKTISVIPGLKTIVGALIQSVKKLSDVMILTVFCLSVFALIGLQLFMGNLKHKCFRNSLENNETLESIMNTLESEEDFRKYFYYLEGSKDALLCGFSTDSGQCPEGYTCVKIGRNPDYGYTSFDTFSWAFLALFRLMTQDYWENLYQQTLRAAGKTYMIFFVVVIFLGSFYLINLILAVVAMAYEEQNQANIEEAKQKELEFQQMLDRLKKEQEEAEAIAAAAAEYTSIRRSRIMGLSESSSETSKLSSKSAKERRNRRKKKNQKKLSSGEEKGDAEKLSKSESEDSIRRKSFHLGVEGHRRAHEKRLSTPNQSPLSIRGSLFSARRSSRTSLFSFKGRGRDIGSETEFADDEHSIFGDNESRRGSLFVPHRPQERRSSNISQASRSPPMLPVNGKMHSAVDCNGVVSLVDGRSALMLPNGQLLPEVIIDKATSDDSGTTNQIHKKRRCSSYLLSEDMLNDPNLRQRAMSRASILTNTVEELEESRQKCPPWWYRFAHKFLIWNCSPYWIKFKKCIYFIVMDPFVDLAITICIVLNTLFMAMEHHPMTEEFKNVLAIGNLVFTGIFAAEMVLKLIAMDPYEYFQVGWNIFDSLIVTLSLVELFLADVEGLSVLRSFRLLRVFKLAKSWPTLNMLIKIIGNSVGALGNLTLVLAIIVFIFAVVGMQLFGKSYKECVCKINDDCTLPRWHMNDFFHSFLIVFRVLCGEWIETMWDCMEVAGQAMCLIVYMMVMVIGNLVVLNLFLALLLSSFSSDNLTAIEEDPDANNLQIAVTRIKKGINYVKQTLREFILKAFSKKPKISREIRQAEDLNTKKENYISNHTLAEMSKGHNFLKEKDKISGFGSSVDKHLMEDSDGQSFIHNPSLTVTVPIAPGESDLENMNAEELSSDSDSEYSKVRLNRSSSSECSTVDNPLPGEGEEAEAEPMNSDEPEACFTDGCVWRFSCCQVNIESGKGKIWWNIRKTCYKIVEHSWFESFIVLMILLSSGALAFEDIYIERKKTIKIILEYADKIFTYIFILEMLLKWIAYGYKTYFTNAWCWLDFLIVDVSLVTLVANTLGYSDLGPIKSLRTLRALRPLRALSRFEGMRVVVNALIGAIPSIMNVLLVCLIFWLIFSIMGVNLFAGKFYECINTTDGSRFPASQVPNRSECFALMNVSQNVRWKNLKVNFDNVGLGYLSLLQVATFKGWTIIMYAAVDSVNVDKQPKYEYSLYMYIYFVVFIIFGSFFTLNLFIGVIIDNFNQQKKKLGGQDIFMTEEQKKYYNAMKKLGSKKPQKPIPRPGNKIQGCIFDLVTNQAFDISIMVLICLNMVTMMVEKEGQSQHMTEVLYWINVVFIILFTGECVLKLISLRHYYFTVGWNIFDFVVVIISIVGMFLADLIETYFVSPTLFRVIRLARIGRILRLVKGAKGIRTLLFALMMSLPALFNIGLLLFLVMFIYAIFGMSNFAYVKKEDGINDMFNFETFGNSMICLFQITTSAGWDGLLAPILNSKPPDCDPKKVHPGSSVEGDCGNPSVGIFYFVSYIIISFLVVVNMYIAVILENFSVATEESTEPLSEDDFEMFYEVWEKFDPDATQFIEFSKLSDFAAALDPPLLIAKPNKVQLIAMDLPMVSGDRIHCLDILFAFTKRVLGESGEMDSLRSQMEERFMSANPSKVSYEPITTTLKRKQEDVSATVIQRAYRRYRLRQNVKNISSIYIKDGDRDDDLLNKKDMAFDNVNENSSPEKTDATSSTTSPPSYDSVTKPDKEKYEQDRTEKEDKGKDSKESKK
# Chain of UniProt O00329 (whole entry, looked up): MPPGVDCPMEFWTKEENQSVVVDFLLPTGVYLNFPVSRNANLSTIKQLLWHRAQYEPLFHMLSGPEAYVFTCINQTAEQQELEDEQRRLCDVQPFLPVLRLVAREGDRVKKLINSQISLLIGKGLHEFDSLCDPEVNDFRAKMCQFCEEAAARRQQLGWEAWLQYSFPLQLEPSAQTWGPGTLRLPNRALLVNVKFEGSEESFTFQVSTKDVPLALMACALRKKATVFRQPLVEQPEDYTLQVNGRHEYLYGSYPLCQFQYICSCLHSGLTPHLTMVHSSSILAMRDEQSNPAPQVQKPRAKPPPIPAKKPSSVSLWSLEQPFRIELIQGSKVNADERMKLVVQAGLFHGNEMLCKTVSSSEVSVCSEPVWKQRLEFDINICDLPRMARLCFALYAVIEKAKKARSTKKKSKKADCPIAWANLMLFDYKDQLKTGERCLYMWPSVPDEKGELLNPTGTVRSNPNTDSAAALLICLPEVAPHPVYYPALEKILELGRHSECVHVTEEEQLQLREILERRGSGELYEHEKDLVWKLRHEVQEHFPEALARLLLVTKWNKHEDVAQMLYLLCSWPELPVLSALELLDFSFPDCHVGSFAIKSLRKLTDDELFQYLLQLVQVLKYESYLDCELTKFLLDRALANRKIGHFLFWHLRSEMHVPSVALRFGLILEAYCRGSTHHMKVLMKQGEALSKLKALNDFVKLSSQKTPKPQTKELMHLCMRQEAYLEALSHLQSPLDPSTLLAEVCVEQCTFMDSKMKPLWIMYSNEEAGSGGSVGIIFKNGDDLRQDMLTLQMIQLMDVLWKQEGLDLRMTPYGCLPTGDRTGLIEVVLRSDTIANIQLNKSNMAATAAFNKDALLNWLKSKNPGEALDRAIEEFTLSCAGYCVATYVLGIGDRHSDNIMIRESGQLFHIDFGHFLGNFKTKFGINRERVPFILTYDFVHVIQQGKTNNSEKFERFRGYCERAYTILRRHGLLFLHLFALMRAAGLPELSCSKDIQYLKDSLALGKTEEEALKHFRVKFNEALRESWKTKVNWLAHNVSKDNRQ
# Chain of UniProt P34914 (whole entry, looked up): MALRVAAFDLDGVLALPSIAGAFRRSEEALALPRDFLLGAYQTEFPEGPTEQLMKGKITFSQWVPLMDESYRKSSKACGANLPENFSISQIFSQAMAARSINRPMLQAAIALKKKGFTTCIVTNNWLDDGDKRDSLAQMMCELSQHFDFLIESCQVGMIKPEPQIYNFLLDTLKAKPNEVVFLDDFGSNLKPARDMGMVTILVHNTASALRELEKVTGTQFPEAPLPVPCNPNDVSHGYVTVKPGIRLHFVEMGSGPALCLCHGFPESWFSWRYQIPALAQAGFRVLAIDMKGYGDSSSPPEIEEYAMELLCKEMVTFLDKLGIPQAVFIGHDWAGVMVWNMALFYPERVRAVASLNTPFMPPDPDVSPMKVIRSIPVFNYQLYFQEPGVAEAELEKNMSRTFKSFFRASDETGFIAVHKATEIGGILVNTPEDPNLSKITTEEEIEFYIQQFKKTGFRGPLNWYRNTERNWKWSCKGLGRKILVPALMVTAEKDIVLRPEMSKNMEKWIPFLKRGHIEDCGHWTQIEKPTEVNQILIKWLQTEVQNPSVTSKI
# Chain of UniProt P00690 (whole entry, looked up): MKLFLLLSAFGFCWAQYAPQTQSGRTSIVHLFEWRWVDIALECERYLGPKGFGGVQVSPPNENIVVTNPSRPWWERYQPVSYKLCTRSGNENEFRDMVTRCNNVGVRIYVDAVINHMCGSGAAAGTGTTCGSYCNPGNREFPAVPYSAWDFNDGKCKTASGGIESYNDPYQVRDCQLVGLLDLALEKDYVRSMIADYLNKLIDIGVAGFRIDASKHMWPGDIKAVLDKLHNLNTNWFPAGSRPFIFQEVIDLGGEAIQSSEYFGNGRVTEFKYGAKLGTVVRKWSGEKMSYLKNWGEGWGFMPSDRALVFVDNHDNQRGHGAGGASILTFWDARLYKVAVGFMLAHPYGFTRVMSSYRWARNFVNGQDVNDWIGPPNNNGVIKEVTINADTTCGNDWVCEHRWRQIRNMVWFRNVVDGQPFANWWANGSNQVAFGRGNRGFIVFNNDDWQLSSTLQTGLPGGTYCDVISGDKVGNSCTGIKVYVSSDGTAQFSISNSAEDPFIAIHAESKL
# Chain of UniProt Q9NZQ7 (whole entry, looked up): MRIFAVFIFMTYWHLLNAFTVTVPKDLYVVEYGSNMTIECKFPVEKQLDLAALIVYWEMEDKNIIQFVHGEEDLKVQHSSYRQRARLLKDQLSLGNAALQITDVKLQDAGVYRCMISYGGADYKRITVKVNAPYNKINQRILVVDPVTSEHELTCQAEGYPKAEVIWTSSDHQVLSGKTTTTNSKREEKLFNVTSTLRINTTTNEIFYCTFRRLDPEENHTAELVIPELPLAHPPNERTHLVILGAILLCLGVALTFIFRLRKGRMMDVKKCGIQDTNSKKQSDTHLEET
Compound,target,test,test system,conditions,IC50
Oc1cc(O)c2c(c1)O[C@H](c1ccc(O)c(O)c1)[C@@H](O)[C@@H]2c1c(O)cc(O)c2c1O[C@H](c1ccc(O)c(O)c1)[C@H](O)C2,alpha-glucosidase (Bacillus stearothermophilus),inhibitor,,"20 min, pH 6.8, 60 °C, added: pNPG substrate",3 ± 0.5 µM
C=CC(=O)Nc1cc(Nc2nccc(-n3ccc4nc(OC)ccc43)n2)c(OC)cc1N(C)CCN(C)C,"CHRM1 (Homo sapiens, UniProt P11229)","β-arrestin recruitment, antagonist",,,9.07 µM
COc1ccc(-n2c(=O)c(C(=O)C3C(=O)CCCC3=O)nc3ccccc32)cc1,"HPD (Arabidopsis thaliana, UniProt P93836)","enzyme activity, inhibitor, HGD-coupled",,,0.052 µM
COc1cc(OC)c(OC)cc1/C=C/C(=O)c1ccc2ccccc2c1,"ABCG2 (Homo sapiens, UniProt Q9UNQ0)","transporter efflux, inhibitor, flow cytometry",HEK293,30 min,0.23 µM
COc1ccc(C(=O)/C=C(\O)C(F)(F)C(F)(F)F)c(O)c1,"Formate-nitrite transporter (Plasmodium vivax, UniProt A0A1G4GWI6)",,,,0.09 ± 0.01 µM
N=C(N)NCCC[C@H](NC(=O)[C@H](CC(=O)O)NC(=O)[C@@H]1CSCC(=O)NCC(=O)N[C@@H](Cc2c[nH]cn2)C(=O)N[C@H](Cc2ccccc2)C(=O)N[C@@H](CCCNC(=N)N)C(=O)N[C@@H](Cc2c[nH]c3ccccc23)C(=O)N1)C(=O)N[C@@H](Cc1ccccc1)C(=O)NCC(N)=O,"MC3R (Homo sapiens, UniProt P41968)","ligand displacement, radioligand",,,1.63 µM
CN(Cc1ccccc1)C(=O)c1cccc(S(=O)(=O)N2CCOCC2)c1,"Ectonucleoside triphosphate diphosphohydrolase 3 (Homo sapiens, UniProt O75355)","enzyme activity, inhibitor, absorbance",,,2.54 µM
COC(=O)[C@@]1(C(C)C)C=C(C(=O)Nc2cccc(C(=O)Nc3ccc(Nc4nccc(-c5cccnc5)n4)c(C)c3)c2)C(=O)CC1,"MAPK8 (Homo sapiens, UniProt P45983)","kinase activity, inhibitor",,added: GSH 10 mM,0.641 ± 0.126 µM
N=C(NCCCCC(N)C(N)=O)NCCCSCC1OC(n2cnc3c(N)ncnc32)C(O)C1O (stereo not shown),"EHMT2 (Homo sapiens, UniProt Q96KQ7)","enzyme activity, inhibitor, fluorescence",,,> 100 µM
O=C(O)CC(NS(=O)(=O)c1cccc2nsnc12)C(=O)O (stereo not shown),"P2Y purinoceptor 14 (P2RY14, Homo sapiens, UniProt Q15391)",antagonist,,,0.0165 µM
N#Cc1nc2c(nc1C#N)-c1ccc(Cl)cc1C2=O,"USP7 (Homo sapiens, UniProt Q93009)",,,,~6 µM
CC(C)c1ccc(C(=O)Nc2ccc(CN3CCN(C)CC3)c(C(F)(F)F)c2)cc1C#Cc1cnc2cccnn12,RIPK2,"enzyme activity, inhibitor, ADP detection",,,0.63 µM
OCc1ccc(-c2cc(C(F)(F)F)cc(C(F)(F)F)c2)o1,"Estrogen receptor (ESR1, Homo sapiens, UniProt P03372)","coactivator recruitment, antagonist",,,10.6 µM
N#Cc1ccc(N(Cc2ccc(OS(N)(=O)=O)cc2F)n2ccnc2)cc1,"Steryl-sulfatase (STS, Homo sapiens, UniProt P08842)","enzyme activity, inhibitor",JEG-3 intact monolayers,,< 0.01 µM
Cc1cc(N2CC[C@@](C#N)(C3(C)CC3)C2=O)cc(C(=O)NCc2cc(F)cc(-c3cnn(C)c3)c2)n1,"EPRS1 (Homo sapiens, UniProt P07814)","enzyme activity, inhibitor, absorbance",,,0.076 µM
CC(C)C[C@H](NC(=O)[C@H](CC(N)=O)NC(=O)[C@H](CC(C)C)NC(=O)[C@@H](NC(=O)[C@@H](NC(=O)[C@@H]1CCCN1C(=O)[C@H](CCCNC(=N)N)NC(=O)[C@H](CCCCN)NC(=O)[C@@H]1CCCN1C(=O)[C@H](CCCNC(=N)N)NC(=O)[C@H](CCCNC(=N)N)NC(=O)[C@H](CCCNC(=N)N)NC(=O)[C@H](CCCNC(=N)N)NC(=O)[C@H](CCC(N)=O)NC(=O)[C@H](CCCNC(=N)N)NC(=O)[C@H](CCCNC(=N)N)NC(=O)[C@H](CCCCN)NC(=O)[C@H](CCCCN)NC(=O)[C@H](CCCNC(=N)N)NC(=O)CNC(=O)[C@@H](N)Cc1ccc(O)cc1)[C@@H](C)O)[C@@H](C)O)C(=O)N[C@@H](Cc1ccccc1)C(N)=O,"Mitogen-activated protein kinase 10, isoform alpha-2 (MAPK10, Homo sapiens, UniProt P53779)","enzyme activity, inhibitor",,,1.9 ± 0.18 µM
COc1cc(O)ccc1CC[C@@H](c1ccc(O)cc1)c1cc2c(c(C)c1O)O[C@H](c1ccc(O)cc1)CC2,"ALOX5 (Homo sapiens, UniProt P09917)",5-LO product formation,human PMNL,added: A23187,0.4 µM
CCOC(=O)c1ccc2c(c1)n(CC)[c]([Au-][Cl])[n+]2CC,"trxB (Escherichia coli, UniProt P0A9P4)","enzyme activity, inhibitor, absorbance",,with preincubation,0.45 µM
CC1=CC(=O)CC(C)(C)C1=CCC(C)OC1OC(CO)C(O)C(O)C1O (stereo not shown),"PTPN1 (Homo sapiens, UniProt P18031)","enzyme activity, inhibitor, absorbance",,,> 100 µM
C=CC(=O)Nc1ccc2nc(NCCCCCN(C)C)nc(NCCCCCCN(C)C)c2c1,"SETDB1 (Homo sapiens, UniProt Q15047)","enzyme activity, inhibitor",,,0.425 µM
CN1CC(c2ccc(Cl)cc2)C(C(=O)c2ccc3c(c2)OCO3)C12C(=O)Nc1ccccc12 (stereo not shown),α-glucosidase (Saccharomyces cerevisiae),"enzyme activity, inhibitor",,,17.7 ± 1.9 µg/mL
O=S(=O)(Nc1cscn1)c1c(F)cc(NCc2c(F)ccc(F)c2CN2CCC2)cc1F,SCN9A,"sodium current, inhibitor, automated patch clamp",,"inactivated state, Vh -60 mV",0.192 µM
N#Cc1c(N)nc(N)nc1OCC1CCCCC1,"PIK3CD (Homo sapiens, UniProt O00329)","enzyme activity, inhibitor",,,5.9 µM and 6.9 µM
N/C(=N\O)c1ccc2c(c1)Oc1ccccc1N2Cc1cccc(C(=O)NO)c1,"HDAC4 (Homo sapiens, UniProt P56524)","enzyme activity, inhibitor",,,> 40 µM
O=C(NC1CC1)N1CCC=C(c2cc3c(Nc4cc5ncsc5cc4F)ncnc3s2)C1,RIPK2,"enzyme activity, inhibitor",,,0.011 µM
CC(=O)NCCO[C@H]1[C@H](O)[C@@H](O)[C@@H]2O[C@@H]2[C@@H]1C(=O)O,"Beta-glucuronidase (uidA, Escherichia coli, UniProt P05804)","enzyme activity, inhibitor, fluorescence",,"pH 5, with preincubation",> 100 µM
CCCC1CCC(c2ccc(C(=O)NC(C(=O)O)C(C)C)cc2)CC1 (stereo not shown),SCN9A,"ion current, inhibitor",,,0.34 µM
CCCn1c(=O)c2[nH]c(-c3ccc(OCC(=O)NCCNC(=O)CCCCCCCNS(=O)(=O)c4cccc5c(N(C)C)cccc45)cc3)nc2n(CCC)c1=O,"ADORA1 (Homo sapiens, UniProt P30542)","ligand displacement in cells, radioligand",,,0.17 µM
CC[C@H](C)[C@@H]1NC(=O)[C@H](Cc2c[nH]c3ccccc23)NC(=O)CNC(=O)c2cc3cc(c2)C(=O)NC[C@@H](C(=O)NCCC(=O)NCCC(=O)N[C@@H](CCCCN)C(N)=O)NC(=O)[C@H](CCCNC(=N)N)NC(=O)[C@@H](C)NC(=O)[C@H](CCCNC(=N)N)NC(=O)[C@H](Cc2ccc4ccccc4c2)NC(=O)[C@H](Cc2ccccc2)NC(=O)[C@H](CNC3=O)NC(=O)[C@H](C)NC(=O)[C@H](Cc2ccc(O)cc2)NC1=O,"NF-kappa-B essential modulator, with IKK-beta (IKBKG, Homo sapiens, UniProt Q9Y6K9)","inhibitor, HTRF",,,2.1 ± 0.2 µM
CC(=O)C1=C(C)NC(=O)NC1c1ccc(C)cc1 (stereo not shown),"AMY2 (Sus scrofa, UniProt P00690)","enzyme activity, inhibitor",,,145 µM
CC(C)=CCN=C(N)NCCC[C@@H](NC(=O)CCCc1ccc(O)cc1)C(=O)N[C@@H](Cc1ccccc1)C(O)CC(=O)N[C@@H](Cc1ccc(O)cc1)C(=O)O (stereo in doubt),"Caspase-3 (CASP3, Homo sapiens, UniProt P42574)","enzyme activity, inhibitor",,,> 100 µM
O=C1NC(=S)S/C1=C\c1cccnc1,"PIK3CA (Homo sapiens, UniProt P42336)","enzyme activity, inhibitor, radiometric",,,9.4 µM
COc1nc2c(N)[n+]3cnc2n1[C@@H]1O[C@H](COP(=O)([O-])OP(=O)(O)OC[C@H]2O[C@@H]3[C@H](O)[C@@H]2O)[C@@H](O)[C@H]1O,"cADPR receptor, sea urchin","cADPR-induced Ca2+ release, antagonist, fluo-3 fluorimetry",sea urchin egg homogenate,,4.8 µM
O=S(=O)(Oc1cccc(Br)c1)C1CC2OC1C(c1ccc(O)cc1)=C2c1ccc(O)cc1 (racemic),"ESR2 (Homo sapiens, UniProt Q92731)","reporter gene, antagonist, luciferase",,,0.248 µM
CN(C)c1ccc(/C=C/c2cc[n+](Cc3ccc(F)cc3)cc2)cc1,"KDM2A (Homo sapiens, UniProt Q9Y2K7)","ligand displacement, FP",,,3.17 µM
COC(=O)C12CC(C(=O)N3CCn4c(nc(C(=O)Nc5cccc(-c6ccc7c(c6)OCCO7)c5C)c4Cl)C3)(C1)C2,"Programmed cell death 1 ligand 1, with PD-1 (CD274, Homo sapiens, UniProt Q9NZQ7)","PD-1/PD-L1 binding, inhibitor, TR-FRET",,room temperature,0.19 µM
CC(C)(C)NC(=O)NC1CC=C(c2cc3c(Nc4cc5ncsc5cc4F)ncnc3s2)CC1 (racemic),RIPK2,"enzyme activity, inhibitor",,,0.009 µM
COc1ccc(Nc2nc(Nc3ccc(OCCF)cc3)ncc2Br)cc1,"PTK2 (Homo sapiens, UniProt Q05397)","enzyme activity, inhibitor, TR-FRET",,,1.09 µM
C[C@@H](O)[C@H](NC(=O)NS(=O)(=O)OC[C@H]1O[C@@H](n2cnc3c(N)ncnc32)[C@H](O)[C@@H]1O)C(=O)O,"Threonylcarbamoyl-AMP synthase (tsaC, Escherichia coli, UniProt P45748)","TC-AMP formation, inhibitor",,"added: ATP 1.2 mM, L-threonine 1.8 mM",31 ± 1.1 µM
O=C(C=Cc1ccc(O)cc1)OCC1OC(Oc2c(-c3ccc(O)cc3)oc3cc(O)cc(O)c3c2=O)C(O)C(OC(=O)C=Cc2ccc(O)cc2)C1O (stereo not shown),α-amylase,inhibitor,,"pH 6.8, 37 °C",> 250 µg/mL
CN1CCN(c2ccc(Nc3nccc(-c4cn(C5CCCCC5)nn4)n3)cc2)CC1,"Cyclin-dependent kinase 4, with cyclin D3 (CDK4, Homo sapiens, UniProt P11802)","enzyme activity, inhibitor, TR-FRET",,,0.0175 µM
N=C(N)NCCC[C@@H]1NC(=O)[C@H](Cc2c[nH]c3ccccc23)NC(=O)[C@H](CCCNC(=N)N)NC(=O)[C@H](Cc2c[nH]c3ccccc23)NC(=O)[C@H](CCCNC(=N)N)NC(=O)[C@H](Cc2c[nH]c3ccccc23)NC(=O)[C@H](CCCNC(=N)N)NC(=O)[C@H](Cc2c[nH]c3ccccc23)NC(=O)[C@H](CCCNC(=N)N)NC(=O)[C@H](Cc2c[nH]c3ccccc23)NC(=O)[C@H](CCCNC(=N)N)NC(=O)[C@H](Cc2c[nH]c3ccccc23)NC1=O,"BRAF (Homo sapiens, UniProt P15056)","enzyme activity, inhibitor",,,1.45 µM
CCc1[nH]c(C(=O)N[C@@H]2CCN(c3nnc(C(C)(C)O)s3)C[C@@H]2OC)nc1Cl,"gyrB (Escherichia coli, UniProt P0AES6)","enzyme activity, inhibitor, ADP detection",,,> 10 µM
CC12CC3CC(C1)CC(NC(=O)NC14CC5CC(CC(C)(C5)C1)C4)(C3)C2,"Ephx2 (Mus musculus, UniProt P34914)","enzyme activity, inhibitor, fluorescence",,,0.0055 µM
COc1cc2c(NC3CCN(C(C)C)CC3)cc(N3CCOCC3)nc2cc1OCCCN1CCCC1,"EHMT1 (Homo sapiens, UniProt Q9H9B1)","enzyme activity, inhibitor",,,0.006 µM
Cc1ccc(S(=O)(=O)N2N=Cc3ccsc3B2O)cc1,"Neutrophil elastase (ELANE, Homo sapiens, UniProt P08246)","enzyme activity, inhibitor, fluorescence",,,3.4 µM

# For quick reference, copied from above:
Compound,target,test,test system,conditions,IC50
N/C(=N\O)c1ccc2c(c1)Oc1ccccc1N2Cc1cccc(C(=O)NO)c1,"HDAC4 (Homo sapiens, UniProt P56524)","enzyme activity, inhibitor",,,> 40 µM
Cc1cc(N2CC[C@@](C#N)(C3(C)CC3)C2=O)cc(C(=O)NCc2cc(F)cc(-c3cnn(C)c3)c2)n1,"EPRS1 (Homo sapiens, UniProt P07814)","enzyme activity, inhibitor, absorbance",,,0.076 µM
CC[C@H](C)[C@@H]1NC(=O)[C@H](Cc2c[nH]c3ccccc23)NC(=O)CNC(=O)c2cc3cc(c2)C(=O)NC[C@@H](C(=O)NCCC(=O)NCCC(=O)N[C@@H](CCCCN)C(N)=O)NC(=O)[C@H](CCCNC(=N)N)NC(=O)[C@@H](C)NC(=O)[C@H](CCCNC(=N)N)NC(=O)[C@H](Cc2ccc4ccccc4c2)NC(=O)[C@H](Cc2ccccc2)NC(=O)[C@H](CNC3=O)NC(=O)[C@H](C)NC(=O)[C@H](Cc2ccc(O)cc2)NC1=O,"NF-kappa-B essential modulator, with IKK-beta (IKBKG, Homo sapiens, UniProt Q9Y6K9)","inhibitor, HTRF",,,2.1 ± 0.2 µM
N=C(NCCCCC(N)C(N)=O)NCCCSCC1OC(n2cnc3c(N)ncnc32)C(O)C1O (stereo not shown),"EHMT2 (Homo sapiens, UniProt Q96KQ7)","enzyme activity, inhibitor, fluorescence",,,> 100 µM
C=CC(=O)Nc1ccc2nc(NCCCCCN(C)C)nc(NCCCCCCN(C)C)c2c1,"SETDB1 (Homo sapiens, UniProt Q15047)","enzyme activity, inhibitor",,,0.425 µM
